Measurements of several laboratories.
Protocols differ between the studies behind these lines. “And” joins repeats or separate records; there may be more than shown. ± gives the spread as reported.
UCHL1: Ubiquitin carboxyl-terminal hydrolase isozyme L1 (UCHL1, Homo sapiens, UniProt P09936)
UniProt P09936, sequence (whole entry, looked up): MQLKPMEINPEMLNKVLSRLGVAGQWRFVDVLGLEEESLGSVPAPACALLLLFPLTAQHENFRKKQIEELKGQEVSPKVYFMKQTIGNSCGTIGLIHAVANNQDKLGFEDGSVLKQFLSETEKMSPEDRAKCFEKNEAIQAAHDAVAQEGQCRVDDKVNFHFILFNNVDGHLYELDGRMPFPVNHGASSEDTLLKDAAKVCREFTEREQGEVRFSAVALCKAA

| Compound | tested on | test | conditions | scale | quantity | result |
| --- | --- | --- | --- | --- | --- | --- |
| CC(=O)Nc1ccc(/C(C)=N/N=c2\sc(C(C)=O)nn2-c2ccc(C)cc2)cc1 | HepG2 | MTT | 1.25 µM |  | cytotoxicity | 0.182% |
| NC[C@@H](OCC(=O)N1CCC[C@H](C(=O)NCc2nc(-c3ccc(C(F)(F)F)cc3)cs2)C1)c1ccccc1 | HepG2 | cytotoxicity |  |  | EC50 | ~20 µM |
| CCOC(=O)c1cc(F)cc(NC(=O)c2sc(Cl)cc2S(=O)(=O)N(C)c2ccc(OCC)c(OC)c2)c1 | HepG2 | SRE promoter reporter, activator, luciferase reporter |  |  | EC50 | 0.13 µM |
| c1cnc2c(c1)ccc1cccnc12 | HepG2 |  | 25 µg/mL | baseline: untreated | IL-1β mRNA level | decreased |
| CCOC(=O)c1nn(-c2cccc(Cl)c2)/c(=N/N=C(\C)c2ccc(NC(=O)c3ccc(Cl)cc3)cc2)s1 | HepG2 | MTT | 5 µM |  | cytotoxicity | 97.4% |
| Cc1nc2ccccc2n(CC(=O)Nc2ccc(C(=O)Nc3cccc(Cl)c3)cc2)c1=O | HepG2 | Annexin V-FITC/PI staining | 2.3 µM |  | necrotic cells | 0.2 ± 0.04% |
| COc1ccc(NC(=O)c2c(Nc3ccccc3)sc(C(=O)NN=Cc3ccc(OC)c(O)c3)c2NC(C)=O)cc1 | HepG2 | annexin V-FITC/PI | concentration not given |  | late apoptotic cells | 7.02 ± 0.81% |
| O=C1C(=O)N(CCn2ncc3c(=O)[nH]cnc32)c2ccc(Cl)cc21 | HepG2 | cell growth, SRB | 72 h |  | IC50 | 5.31 ± 3.22 µg/mL |
| CCn1c(C)c(N=Nc2ccccc2)sc1=NN=C(C)c1c(O)c2ccccc2oc1=O | HepG2 | cell growth, MTT |  | baseline: IC50 BJ-1 over HepG2 | selectivity index | > 1.64 |
| Cc1cc(C(=O)CCl)c(C)n1-c1ccc2c(c1)OCO2 | UCHL1 | covalent, intact protein LC-MS | 12.5 µM |  | labelling | 6.96% |
| O=C(O)Cc1ccccc1Nc1c(Cl)cccc1Cl | HepG2 | high content imaging, item: nuclear size | 24 h, representative mode |  | point of departure | 209 µM and 138 µM |
| COc1cnc2cccc(N3CCc4c(cc(Cn5ccnc5C)cc4-c4cn(C)nc4C(F)(F)F)C3=O)c2c1 | HepG2 | cell growth, inhibitor | 120 h |  | EC50 | 4.56 µM |
| COc1ccc(-n2nc(C(C)=O)s/c2=N\N=C(/C)c2ccc(NC(=O)c3ccccc3)cc2)cc1 | HepG2 |  | 0.625 µM |  | toxicity | 49.8% |
| CN(CCOc1ccc(CC2SC(=O)NC2=O)cc1)c1ccccn1 (stereo not drawn) | HepG2 | extracellular flux, item: reserve respiratory capacity | 6 h, distribution mode 1 |  | point of departure | 0.0708 µM |
| CCN1C(=O)C(=Cc2ccc(-c3ccc(F)cc3)o2)C(C)=C(C#N)C1=O | UCHL1 | covalent, intact protein LC-MS | 12.5 µM |  | labelling | 24.9% |
| CC(C)(C)c1cc(O)ccc1O | HepG2 | extracellular flux, item: oxygen consumption rate | 24 h, distribution mode 1 |  | point of departure | 0.0219 µM |
| CCOc1ccc(N(C)S(=O)(=O)c2cc(Cl)sc2C(=O)Nc2ccc3c(c2)C(=O)NC3=O)cc1OC | HepG2 | SRE promoter reporter, activator, luciferase reporter |  |  | EC50 | 29 µM |
| C[S+](C)[O-] | HepG2 | propidium iodide staining | 20%, 24 h |  | PI-positive cells | > 90% |
| CC(C)Cc1ccc([C@@H](C)[C@@H](O)CC(C)C)cc1 (racemic) | HepG2 |  | 250 µM, 48 h |  | cells killed | 88% |
| CCCOc1nc(-c2cccc(O)c2)cc(-c2cc3ccccc3nc2N2CCOCC2)c1C#N | HepG2 | MTT |  | baseline: WI-38 EC50 over HepG2 IC50 | selectivity ratio | 0.45 |

| Compound | tested on | test | conditions | scale | quantity | result |
| --- | --- | --- | --- | --- | --- | --- |
| CCOC(=O)c1nn(-c2cccc(Cl)c2)/c(=N/N=C(\C)c2ccc(NC(=O)c3ccccc3)cc2)s1 | HepG2 | MTT | 0.078 µM |  | cytotoxicity | 18.1% |
| OC[C@H]1O[C@@H](Oc2c[nH]c3ccccc23)[C@H](O)[C@@H](O)[C@@H]1O | HepG2 | cell viability, MTT | 24 h |  | IC50 | 3350 µM |
| CCc1ccc(CCOc2ccc(CC3SC(=O)NC3=O)cc2)nc1 (stereo not drawn) | HepG2 | CellTiter-Glo, item: cellular ATP | 24 h, representative mode |  | point of departure | 4.47 µM |
| CCOC(=O)c1sc(=NN=C(C)c2c(O)c3ccccc3oc2=O)[nH]c1C | HepG2 | cell growth, MTT |  | baseline: IC50 BJ-1 over HepG2 | selectivity index | > 1.75 |
| CC(=O)c1nn(-c2ccc(Cl)cc2)/c(=N/N=C(\C)c2ccc(NC(=O)c3ccc(C)cc3)cc2)s1 | HepG2 |  | 0.078 µM |  | viability | 79.1% |
| C[C@H]1O[C@@H](O[C@H]2CC[C@@]3(C)[C@@H](CC[C@]4(C)[C@@H]3C=C[C@]35OC[C@@]6(CCC(C)(C)C[C@H]63)[C@@H](O)C[C@]54C)[C@]2(C)CO)[C@H](O)[C@@H](O[C@@H]2O[C@H](CO)[C@@H](O)[C@H](O)[C@H]2O)[C@H]1O | HepG2 | flow cytometry | concentration not given, high concentration, unit not given, added: ethanol | baseline: control | ROS level | 1.33 and 1.09 and 1.91 |
| CC(=O)c1sc(=NN=C(C)c2c(O)c3ccccc3oc2=O)[nH]c1C | HepG2 | cell growth, MTT |  | baseline: IC50 BJ-1 over HepG2 | selectivity index | > 2.05 |
| CCOC(=O)c1c(-c2ccc(OC)cc2)oc2ccc(OCc3cn(C[C@H]4O[C@H](O[C@H]5O[C@H](CO)[C@@H](O)[C@H](O)[C@H]5O)[C@H](O)[C@@H](O)[C@@H]4O)nn3)c(CN3CCCCC3)c12 | HepG2 | cytotoxicity, resazurin | 18 h |  | IC50 | > 200 µM |
| CC(=O)c1nn(-c2ccc(Cl)cc2)/c(=N/N=C(\C)c2ccc(NC(=O)c3ccc(Cl)cc3)cc2)s1 | HepG2 |  | 2.5 µM |  | viability | 92% |
| CCOC(=O)c1sc(=NN=C(C)c2c(O)c3ccccc3oc2=O)n(CC)c1C | HepG2 | cell growth, MTT |  | baseline: IC50 BJ-1 over HepG2 | selectivity index | > 2.22 |
| CCOC(=O)/C=C\C(=O)OCC | HepG2 | high content imaging, item: DNA structure | 24 h, representative mode |  | point of departure | 186 µM and 204 µM |
| CC(=O)c1nn(-c2ccccc2Cl)/c(=N/N=C(\C)c2ccc(NC(=O)c3ccccc3)cc2)s1 | HepG2 | MTT | 0.625 µM |  | cytotoxicity | 94.1% |
| CC1=CC(=O)c2ccccc2C1=O | HepG2 | MTT |  | baseline: IC50 MRC-5 over IC50 HepG2 | selectivity index | 2.43 |
| Nc1ccn([C@H]2CC[C@@H](CO)O2)c(=O)n1 | HepG2 | qPCR | 2 µM, 10 days | baseline: untreated control | mitochondrial DNA content | 56.5 ± 10.5% |
| CCOC(=O)[C@H](Cc1ccccc1)NC(=O)c1cc(Cl)c(OCCN2CCN(C)CC2)c(Cl)c1O.Cl.Cl | HepG2 | PAS-seq | 20 µM, 4 h |  | genes with significant APA change | 921 genes |
| CC(=O)c1nn(-c2ccc(C)cc2)/c(=N/N=C(\C)c2ccc(NC(=O)c3ccccc3)cc2)s1 | HepG2 | MTT | 0.156 µM |  | cytotoxicity | 71.5% |
| COc1ccc(NC(=O)c2c(Nc3ccccc3)sc(C#N)c2NC(=O)CNc2ccc(Cl)cc2)cc1 | HepG2 | flow cytometry | IC50, 24 h |  | cells in S phase | 33.5 ± 4.32% |
| CC(=NN=c1[nH]c(C)c(N=Nc2ccccc2)s1)c1c(O)c2ccccc2oc1=O | HepG2 | cell growth, MTT |  | baseline: IC50 BJ-1 over HepG2 | selectivity index | > 1.4 |
| COc1ccc2c(c1)C(=O)C(=O)N2CCn1ncc2c(=O)[nH]cnc21 | HepG2 | cell growth, SRB | 72 h |  | IC50 | 31.9 ± 13.3 µg/mL |

Some of these lines once more:
| Compound | tested on | test | conditions | scale | quantity | result |
| --- | --- | --- | --- | --- | --- | --- |
| CCOc1ccc(N(C)S(=O)(=O)c2cc(Cl)sc2C(=O)Nc2ccc3c(c2)C(=O)NC3=O)cc1OC | HepG2 | SRE promoter reporter, activator, luciferase reporter |  |  | EC50 | 29 µM |
| C[S+](C)[O-] | HepG2 | propidium iodide staining | 20%, 24 h |  | PI-positive cells | > 90% |
| CC(C)Cc1ccc([C@@H](C)[C@@H](O)CC(C)C)cc1 (racemic) | HepG2 |  | 250 µM, 48 h |  | cells killed | 88% |
| CCCOc1nc(-c2cccc(O)c2)cc(-c2cc3ccccc3nc2N2CCOCC2)c1C#N | HepG2 | MTT |  | baseline: WI-38 EC50 over HepG2 IC50 | selectivity ratio | 0.45 |
| CCOC(=O)c1nn(-c2cccc(Cl)c2)/c(=N/N=C(\C)c2ccc(NC(=O)c3ccccc3)cc2)s1 | HepG2 | MTT | 0.078 µM |  | cytotoxicity | 18.1% |
| OC[C@H]1O[C@@H](Oc2c[nH]c3ccccc23)[C@H](O)[C@@H](O)[C@@H]1O | HepG2 | cell viability, MTT | 24 h |  | IC50 | 3350 µM |
| CCc1ccc(CCOc2ccc(CC3SC(=O)NC3=O)cc2)nc1 (stereo not drawn) | HepG2 | CellTiter-Glo, item: cellular ATP | 24 h, representative mode |  | point of departure | 4.47 µM |
